Published values pooled from the literature.
Protocols differ between the studies behind these lines. Several values in a cell are separate wells, animals, samples, runs or records. In brackets after ≈: the same amount, converted by molar mass.
UniProt P20813, sequence (whole entry, looked up): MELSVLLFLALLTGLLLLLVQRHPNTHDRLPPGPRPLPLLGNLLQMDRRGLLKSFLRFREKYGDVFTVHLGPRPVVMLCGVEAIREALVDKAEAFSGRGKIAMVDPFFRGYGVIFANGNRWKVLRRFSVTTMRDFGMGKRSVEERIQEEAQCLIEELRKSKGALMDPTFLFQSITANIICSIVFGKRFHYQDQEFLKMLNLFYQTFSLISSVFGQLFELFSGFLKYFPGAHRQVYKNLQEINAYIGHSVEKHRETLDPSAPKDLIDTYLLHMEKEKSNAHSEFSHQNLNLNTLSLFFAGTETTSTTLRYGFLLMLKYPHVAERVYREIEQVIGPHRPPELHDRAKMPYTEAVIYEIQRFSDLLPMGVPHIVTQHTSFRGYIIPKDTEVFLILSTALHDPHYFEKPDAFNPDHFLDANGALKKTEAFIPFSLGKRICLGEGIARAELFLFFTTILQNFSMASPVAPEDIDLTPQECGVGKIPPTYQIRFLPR
UniProt Q9NYY3, sequence (whole entry, looked up): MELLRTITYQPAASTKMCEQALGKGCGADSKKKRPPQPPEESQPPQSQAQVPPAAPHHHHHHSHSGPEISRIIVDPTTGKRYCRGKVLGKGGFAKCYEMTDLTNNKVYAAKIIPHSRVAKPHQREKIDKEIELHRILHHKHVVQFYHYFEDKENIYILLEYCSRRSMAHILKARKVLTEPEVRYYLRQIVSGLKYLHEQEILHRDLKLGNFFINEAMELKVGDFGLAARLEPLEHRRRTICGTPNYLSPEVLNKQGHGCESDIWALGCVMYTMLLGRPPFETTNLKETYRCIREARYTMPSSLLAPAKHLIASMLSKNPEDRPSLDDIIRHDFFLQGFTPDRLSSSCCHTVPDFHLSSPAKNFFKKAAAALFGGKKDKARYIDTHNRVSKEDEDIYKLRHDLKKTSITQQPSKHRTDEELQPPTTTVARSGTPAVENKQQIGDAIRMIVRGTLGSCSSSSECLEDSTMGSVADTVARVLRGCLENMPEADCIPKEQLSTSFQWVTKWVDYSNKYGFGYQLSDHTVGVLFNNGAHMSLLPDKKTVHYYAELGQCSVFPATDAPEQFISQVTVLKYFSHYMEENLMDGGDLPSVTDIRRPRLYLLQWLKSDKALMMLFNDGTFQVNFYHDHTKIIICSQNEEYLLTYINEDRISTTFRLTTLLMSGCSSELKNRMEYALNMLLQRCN

Structure (SMILES) | tested on | test | system | setting | scale | endpoint | result
CC[C@H]1OC(=O)[C@H](C)[C@@H](OC(=O)Cc2ccc(N)cc2)[C@H](C)[C@@H](O[C@@H]2O[C@H](C)C[C@H](N(C)C)[C@H]2O)[C@](C)(OC)C[C@@H](C)C(=O)[C@H](C)[C@@H](O)[C@]1(C)O | Cryptococcus neoformans | microbial growth | ATCC208821 | – | – | MIC | > 32000 ng/mL
CCCC/C=C/C(=O)N[C@@H](Cc1cc(F)cc(F)c1)C(=O)N[C@@H]1C(=O)N2CCC[C@H]2C(=O)N(C)[C@@H](C)C(=O)N[C@@H](C)C(=O)N2CCC[C@H]2C(=O)O[C@H]1C | Streptococcus pneumoniae | microbial growth, broth dilution | – | – | – | MIC | 3 ng/mL (≈ 4.03 nM)
CC[C@H]1OC(=O)[C@H](C)[C@@H](OC(=O)Cc2c(F)cccc2F)[C@H](C)[C@@H](O[C@@H]2O[C@H](C)C[C@H](N(C)C)[C@H]2O)[C@](C)(OC)C[C@@H](C)C(=O)[C@H](C)[C@@H](O)[C@]1(C)O | Cryptococcus neoformans | microbial growth | ATCC208821 | – | – | MIC | > 32000 ng/mL
COc1c(NC(=O)c2ccc(NC(=O)[C@H](Cc3c[nH]nn3)NC(=O)c3ccc(NC(=O)/C(C)=C/c4ccc(O)cc4)cc3)cc2)ccc(C(=O)Nc2ccc(C(=O)O)cc2)c1O | Salmonella enterica serovar Kentucky | broth microdilution | ciprofloxacin-resistant | – | – | MIC | 250 ng/mL (≈ 298 nM)
CCCC/C=C/C(=O)N[C@@H](Cc1cc(F)cc(F)c1)C(=O)N[C@@H]1C(=O)N2CCC[C@H]2C(=O)N2CC[C@H](C)C[C@H]2C(=O)N[C@@H](C)C(=O)N2CCC[C@H]2C(=O)O[C@H]1C | Streptococcus pneumoniae | microbial growth, broth dilution | – | – | – | MIC | < 0.02 ng/mL
COC1CN([C@H]2CC[C@H]([C@@]3(C)Oc4c(Cl)cc(C(=O)NCc5c(SC)cc(C)[nH]c5=O)c(C)c4O3)CC2)C1 | – | RNA-seq, item: B3GALNT1 mouse homolog | mouse, HT-1376 xenograft, whole blood | dose not given | reference: vehicle | log2 fold change | 0.671
CCCC/C=C/C(=O)N[C@@H](Cc1cc(F)cc(F)c1)C(=O)N[C@@H]1C(=O)N2CCC[C@H]2C(=O)N2CCCC[C@H]2C(=O)N[C@@H](C)C(=O)N2CCC[C@H]2C(=O)O[C@H]1C | Streptococcus pneumoniae | microbial growth, broth dilution | – | – | – | MIC | < 0.02 ng/mL
C/C(=C\c1ccc(O)cc1)C(=O)Nc1ccc(C(=O)N[C@@H](Cc2c[nH]nn2)C(=O)Nc2ccc(C(=O)Nc3ccc(C(=O)Nc4ccc(C(=O)O)cc4)c(O)c3)cc2)cc1 | Salmonella enterica serovar Kentucky | broth microdilution | ciprofloxacin-sensitive | – | – | MIC | 250 ng/mL (≈ 309 nM)
CC1(C)C(NC(=O)C(=NOC2(C(=O)O)CC2)c2csc(N)n2)C(=O)N1OS(=O)(=O)O (stereo not drawn) | Klebsiella pneumoniae | – | ATCC 1716, ESBL | compound alone | – | MIC | 128000 ng/mL (≈ 276000 nM)
CC(C)OCCOCc1ccc(OCC(O)CN(N=O)C(C)C)cc1 (stereo not drawn) | Salmonella typhimurium | Ames test | TA98 | 1580 µg/plate, without metabolic activation | reference: solvent control | revertant fold increase | 0.8 fold
Nc1ncc(-c2cc(-c3cnn(CC(F)(F)F)c3)ncc2F)nc1C(=O)NC1CNCC(F)C1 (stereo not drawn) | SIK | KINOMEscan competition binding | – | 1 µM | reference: DMSO control | remaining binding | 92%
CC[C@H]1OC(=O)[C@H](C)[C@@H](OC(=O)Cc2cccc([N+](=O)[O-])c2)[C@H](C)[C@@H](O[C@@H]2O[C@H](C)C[C@H](N(C)C)[C@H]2O)[C@](C)(OC)C[C@@H](C)C(=O)[C@H](C)[C@@H](O)[C@]1(C)O | Cryptococcus neoformans | microbial growth | ATCC208821 | – | – | MIC | > 32000 ng/mL
CNC(=O)C1CCCN(C(=O)C2CC3CCC2N3C(=O)[C@@H]2C[C@@H](O)CN2C(=O)NCc2cccc(Cl)c2F)C1 (mixture of isomers) | Cytochrome P450 2B6 (CYP2B6, Homo sapiens, UniProt P20813) | preincubation with NADPH | human | 0.617 µM | reference: negative control | remaining activity | 104% and 106% and 92.7%
C=CC(=O)Nc1cccc(Cn2ncc3cnc(Nc4cnn(CCOC)c4)nc32)c1 | PLK1 human | binding, KINOMEscan | – | 100 nM | lower = stronger binding | percent of control | 96%
CC[C@H]1OC(=O)[C@H](C)C(=O)[C@H](C)[C@@H](O[C@@H]2O[C@H](C)C[C@H](N(C)C)[C@H]2O)[C@](C)(OC)C[C@@H](C)C(=O)[C@H](C)[C@H]2N(CCCCn3cnc(-c4cccnc4)c3)C(=O)O[C@]12C | Cryptococcus neoformans | microbial growth | ATCC208821 | – | – | MIC | > 32000 ng/mL
Cc1nn(-c2cccc(N)c2)c(=O)c2cnc(Nc3ccc(N4CCNCC4)cc3)nc12 | PLK2 (Homo sapiens, UniProt Q9NYY3) | enzyme activity, inhibitor | – | – | – | IC50 | > 10000 nM
CNS(=O)(=O)Nc1nccc(Cc2c(C)c3ccc(Oc4ncccc4F)cc3oc2=O)c1F | RERF-LC-Ad2 | cell viability | – | 7 days | – | IC50 | 6.04 nM

Structure (SMILES) | tested on | test | system | setting | scale | endpoint | result
CC[C@H]1OC(=O)[C@H](C)[C@@H](OC(=O)Cc2c(F)cc([N+](=O)[O-])cc2F)[C@H](C)[C@@H](O[C@@H]2O[C@H](C)C[C@H](N(C)C)[C@H]2O)[C@](C)(OC)C[C@@H](C)C(=O)[C@H](C)[C@@H](O)[C@]1(C)O | Cryptococcus neoformans | microbial growth | ATCC208821 | – | – | MIC | > 32000 ng/mL
Cc1c(CN(C)C(=O)/C=C/c2cnc3c(c2)CC(N)C(=O)N3)oc2ccccc12 (stereo not drawn) | Klebsiella pneumoniae | broth microdilution | AR-0098 | – | – | MIC | 32000 ng/mL (≈ 82000 nM)
O=[N+]([O-])c1c(Br)c(Cl)c2cccnc2c1O | Streptococcus pneumoniae | microbial growth, broth dilution | ATCC49619 | – | – | MIC | 4000 ng/mL (≈ 13200 nM)
CN1CCCNC(=O)c2cccc(c2)C(=O)NCCCN(C)CCCNc2cccc3c2C(=O)c2cccc(c2C3=O)NCCC1 | mouse bone marrow cells | CCK-8 | – | 0.15 µM, 48 h | reference: untreated | viability | 98.5%
CCOc1c(NC(=O)c2ccc(NC(=O)c3ccc(NC(=O)[C@H](Cc4c[nH]nn4)NC(=O)c4ccc(NC(=O)/C(C)=C/c5ccc(O)cc5)cc4)cc3)c(OC)c2O)ccc(C(=O)O)c1O | Salmonella enterica serovar Kentucky | broth microdilution | ciprofloxacin-resistant | – | – | MIC | 63 ng/mL (≈ 70.1 nM)
CC[C@H]1OC(=O)[C@H](C)[C@@H](OC(=O)Cc2cccc(Cl)c2)[C@H](C)[C@@H](O[C@@H]2O[C@H](C)C[C@H](N(C)C)[C@H]2O)[C@](C)(OC)C[C@@H](C)C(=O)[C@H](C)[C@@H](O)[C@]1(C)O | Cryptococcus neoformans | microbial growth | ATCC208821 | – | – | MIC | > 32000 ng/mL
CCCC[C@H](NC(C)=O)C(=O)N[C@@H](CO)C(=O)N[C@H](C(=O)N1CCC[C@H]1C(=O)N[C@]1(C)CCCCCCC=CCCC[C@@](C)(C(=O)N[C@@H](Cc2ccccc2)C(=O)N[C@@H](CCCCN)C(=O)N[C@@H](CCCNC(=N)N)C(=O)N[C@@H](CC(C)C)C(=O)N[C@@H](CCC(N)=O)C(N)=O)NC(=O)[C@H](CCCNC(=N)N)NC(=O)[C@H](CCCC)NC(=O)[C@H](CC(C)C)NC(=O)[C@H](CCCNC(=N)N)NC(=O)[C@H](CCCNC(=N)N)NC(=O)[C@H](CCCNC(=N)N)NC1=O)[C@@H](C)O | proteinase K | LC-MS | – | 25 µM, 430.6 min, pH 7.4 | – | remaining peptide | 42.9%
C/C(=C\c1ccc(O)cc1)C(=O)Nc1ccc(C(=O)N[C@@H](Cc2c[nH]nn2)C(=O)Nc2ccc(C(=O)Nc3ccc(C(=O)Nc4ccc(C(=O)O)c(O)c4)c(O)c3)cc2)cc1 | Salmonella Typhimurium | broth microdilution | TA100 | – | – | MIC | 16 ng/mL (≈ 19.4 nM)
CC[C@H]1OC(=O)[C@H](C)[C@@H](OC(=O)Cc2ccc(Cl)cc2)[C@H](C)[C@@H](O[C@@H]2O[C@H](C)C[C@H](N(C)C)[C@H]2O)[C@](C)(OC)C[C@@H](C)C(=O)[C@H](C)[C@@H](O)[C@]1(C)O | Cryptococcus neoformans | microbial growth | ATCC208821 | – | – | MIC | > 32000 ng/mL
CN(C)CCCCCN(C)Cc1cc2ccccc2o1 | Trypanosoma cruzi | reporter mRNA translation, inhibitor, item: Renilla luciferase mRNA | cell-free extract | concentration not given, test 2 | reference: positive over negative control | translation activity | 103%
COc1c(NC(=O)c2ccc(NC(=O)c3ccc(NC(=O)[C@H](Cc4c[nH]nn4)NC(=O)c4ccc(NC(=O)/C(C)=C/c5ccc(O)cc5)cc4)cc3)cc2O)ccc(C(=O)O)c1O | Salmonella enterica serovar Kentucky | broth microdilution | ciprofloxacin-sensitive | – | – | MIC | 250 ng/mL (≈ 292 nM)
Cc1ncsc1-c1ccc(C(C)NC(=O)C2CC(O)CN2C(=O)C(NC(=O)CCCCCCCCCCN2CCCC(Nc3ncc(Cl)c(Nc4ccccc4S(=O)(=O)C(C)C)n3)C2)C(C)(C)C)cc1 (stereo not drawn) | 22Rv1 | RNA-seq, item: ZC3H12A mRNA | – | concentration not given | reference: DMSO | log2 fold change | -1.24
COc1nc(C(=O)Nc2ccc(C(=O)O)nc2OC)ccc1NC(=O)c1ccc(NC(=O)[C@H](Cc2c[nH]nn2)NC(=O)c2ccc(NC(=O)/C(C)=C/c3ccc(O)cc3)cc2)cc1 | Salmonella enterica serovar Kentucky | broth microdilution | ciprofloxacin-resistant | – | – | MIC | 16000 ng/mL (≈ 18700 nM)
C=C(NC(=O)c1csc(-c2nc3c(cc2O)-c2nc(cs2)C(=O)NC(C(C)O)C(=O)NC(=C(C)OC)c2nc(cs2)C(=O)NC2c4nc(cs4)C(=O)NC(COC(=O)c4c5c6c(cccc6n4O)COC(=O)C(OC4CC(C)(O)C(N(C)C)C(C)O4)C2OC5)c2nc-3cs2)n1)C(N)=O (stereo not drawn) | Staphylococcus epidermidis | – | MRSE-37, methicillin-resistant | – | – | MIC | 7.8 ng/mL (≈ 5.43 nM)
COc1c(NC(=O)c2ccc(NC(=O)[C@H](Cc3c[nH]nn3)NC(=O)c3ccc(NC(=O)/C(C)=C/c4ccc(O)cc4)cc3)cc2)ccc(C(=O)Nc2ccc(C(=O)O)c(O)c2)c1O | Salmonella enterica serovar Kentucky | broth microdilution | ciprofloxacin-sensitive | – | – | MIC | 125 ng/mL (≈ 146 nM)
CCCCC=CC(=O)NC(Cc1cc(F)cc(F)c1)C(=O)NC1COC(=O)C2CCCN2C(=O)C(C)NC(=O)C(C)N(C)C(=O)C2CCCN2C1=O (stereo not drawn) | Streptococcus pneumoniae | microbial growth, broth dilution | – | – | – | MIC | 24 ng/mL (≈ 32.8 nM)

Repeated from above:
Structure (SMILES) | tested on | test | system | setting | scale | endpoint | result
CC[C@H]1OC(=O)[C@H](C)[C@@H](OC(=O)Cc2cccc([N+](=O)[O-])c2)[C@H](C)[C@@H](O[C@@H]2O[C@H](C)C[C@H](N(C)C)[C@H]2O)[C@](C)(OC)C[C@@H](C)C(=O)[C@H](C)[C@@H](O)[C@]1(C)O | Cryptococcus neoformans | microbial growth | ATCC208821 | – | – | MIC | > 32000 ng/mL
CNC(=O)C1CCCN(C(=O)C2CC3CCC2N3C(=O)[C@@H]2C[C@@H](O)CN2C(=O)NCc2cccc(Cl)c2F)C1 (mixture of isomers) | Cytochrome P450 2B6 (CYP2B6, Homo sapiens, UniProt P20813) | preincubation with NADPH | human | 0.617 µM | reference: negative control | remaining activity | 104% and 106% and 92.7%
